Measured values pooled from the literature.
Numbered parts are unrelated; each lists some results of a single study.

Sample 1 — organism: Saccharomyces cerevisiae; effect on: binding; method: yeast competitive growth sequencing; form: peptide; strain: cyclin A1-Cln2 strain; matrix: peptide tiling library; reading: direction not given; measurement: enrichment score
Sequence = KPHVSDEEEEEPPFYH; value = 1.52
Sequence = PKNAKRNLSSEFAN; value = -0.501
Sequence = SSEVARHLLFQSHM; value = -1.02
Sequence = PKRAKRKLYTSEISSP; value = 0.1
Sequence = SAVPLILPQAPSGPSY; value = 1.28
Sequence = GLPDFVFQQQPVESEA; value = 1.51

Sample 2 — method: RNA Bind-n-Seq; form: RNA; matrix: in vitro; concentration: 365 nM; baseline: no-protein control; reading: higher = stronger binding; measurement: RBNS enrichment (R)
Target: RNA binding protein fox-1 homolog 2, RRM domain, GST-SBP tag (RBFOX2, Homo sapiens, UniProt O43251-10, residues 100-194)
Setting: natural RNA segment, single round, ends assumed
Shared flanks, not repeated: GGGAGUUCUACAGUCCGACGAUC … UGGAAUUCUCGGGUGCCAA
Construct (chain): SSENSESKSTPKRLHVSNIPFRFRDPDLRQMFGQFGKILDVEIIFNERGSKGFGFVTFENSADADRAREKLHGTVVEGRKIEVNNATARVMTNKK
Oligonucleotide = CGUUCAUAUUCUCAGGCCGCAAGUGCAAUGCCUGAGGGGAUCAGGCUUUUCUACUCCAGGCAAACCUGCCCCAUCUUGUCGCUUUUAGGACCUCCCACAACCUGGUUCCC; value = 0.275
Oligonucleotide = CUUUCUUCUUGCCCAGCUCUGUCGAAUUCAUGGGUGUGUGUGCACAUGUUGGUUUCACUCACCCAGAGUAAUUUUGUGAGCAUGCAUGUGCUUUUUAAUUUCUGCUUGAA; value = 7.42
Oligonucleotide = UAACACAGGACGUGUGUGCGCAUGUGCAAGUGUGGAUGUAUGUGUGUGCGUGUGUUUUGCUCAUUUCUUUAGGGAACUUGGGAGUCGGGGUUGGAGGUGCUGGGCAAUGG; value = 1.16
Oligonucleotide = UGACCACCUGUAACUCCUGUUCCAAAGGUUUCGAUACCUUCUGACCUCUGGGCACCAGGCGUGCACAUGGUAUACAGACAUAGGUGCAGACAAAACAUCUAUACGUACAG; value = 0.224
Oligonucleotide = UGCCGAGGUCCAGGAGGCCUUGCCUGCUCUUCAUCUGCCUGCGAGCUGUAGGACCUGCAUGGGAAAUGGUCUGUGUGUUUCAGGUUAACAAAUACUGAAAAUCCCAAGGA; value = 9.13
Oligonucleotide = CAGUCUUGUGAGAUGGGGGCACAUAGCACUGGGGAAAGCAGAACUCCAUUCUCACCUCUAUUUUGAGCUUCAGUGCUUUAUUUCAGUAUGAGGAAAAACAACAACAAACU; value = 0.641
Oligonucleotide = AAUAAAAGGCUUCCAGAGGAGAGUGGCCUGGGUCCCAGGGCUGGCCCUAGGCACUGAUAGUUGCCUUUUCUUCCCCUCCUGUAAGAGUAUUAACAAAACCAAAGGACACA; value = 0.517
Oligonucleotide = ACCCCCAUUCUUUCCAAGUCAGAUAGUCUUCUGCUGCUGGUACCUGGGUGGGCAAUGGCCACCAUGUCUGCACACACCAGAAAUGGACAUUUUCAUAUGCAAUGGAAAAC; value = 0.514
Oligonucleotide = CCAGACAGCCCCAAGCUUCUGAGUCUAGAUACAGAAGCCCAUGUCUUCUGCUGUUCUUCACUUCUGGGAAAUUGAAGUGUCUUCUGUUCCCAAGGAAGCUCCUUCCUGUU; value = 0.257
Oligonucleotide = CCAGCAGGAGAGCCAGCAGGGCAGCAGUAGAGGCCCCUCGUGGGCCCCUUUUCAUGUCCUGACCCAUGUCCUGCCAGUGUUCUUUCCAUGCUUUAAGUUGACUCUUUCUU; value = 0.161
Oligonucleotide = UCCUGUUCAGACUUUUCCUGAUGACAAUAGUAUCGAGGACACACCAUCAAAAUGUUACUGCCGGUUGAAAGCCAUGAUCAUGUGCAAAGGAUGUGGAGCUUUCUGCCAUG; value = 0.868
Oligonucleotide = ACUAGGUGAUUAGGCCUAUUGGUAGAUAGCCAUUGUUGAACUACCUGGACCACAAUUUGUAAGCCAUUCUAAUACAUCCCCUUUAUAUGUAUUUUUUCAUUCUAUAAGUU; value = 1.09

Sample 3 — method: RNA Bind-n-Seq; form: RNA; matrix: in vitro; concentration: not given; baseline: input RNA pool; reading: higher = stronger binding; measurement: bound/input enrichment
Target: RING finger protein unkempt homolog, zinc fingers 1-6, GST-SBP tag (UNK, Homo sapiens, UniProt Q9C0B0, residues 30-357)
Setting: RNA with constant flanks, human-mouse chimeric sites, ends assumed
Shared flanks, not repeated: GGGAGUUCUACAGUCCGACGAUC … CAACAGAGGAUUGAGCAUCA
Construct (chain): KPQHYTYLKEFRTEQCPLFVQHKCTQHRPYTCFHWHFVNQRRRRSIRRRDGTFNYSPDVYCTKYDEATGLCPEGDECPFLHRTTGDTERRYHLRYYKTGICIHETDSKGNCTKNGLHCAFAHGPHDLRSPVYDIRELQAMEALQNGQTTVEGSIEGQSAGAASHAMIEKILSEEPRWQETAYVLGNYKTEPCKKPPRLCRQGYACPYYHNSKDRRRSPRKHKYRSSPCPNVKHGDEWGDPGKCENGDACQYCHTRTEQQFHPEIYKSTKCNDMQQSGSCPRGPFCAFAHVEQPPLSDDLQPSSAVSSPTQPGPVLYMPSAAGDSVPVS
Oligonucleotide = UCUUAACGUCCAUUUAAAACUUAUUUUUAUAGCUAGAUAAAUAUUGUUAGUCUUAGACAAUAGCUCACAUUUUUUGAGAAGCAUGCCCUCCCUGUCCAUUUGUCUUACAAUAACACUCAG; value = 63.7 ratio
Oligonucleotide = GGGGAGAAACCUUACGAGUGUGUGCAGUGUGGGAAAUCCUACAGUCAGAGCUCAAACCUUUUUAGACAUCAGAGACGACACAAUGCAGAAAAACUUUUGAAUGUUGUGAAAGUUUAAGAA; value = 0.23 ratio
Oligonucleotide = CCCACGCCUCCUCUCCCACAGGCCCAAGAUAUAACCCACCAGUGCCUUUUGUCUUCCUGUCAGCUCUGUCAAUCACGCCUGUCCUCUCACGCCCACACUCCCCAGCCAAAGUGGGGAGGG; value = 0.791 ratio
Oligonucleotide = UCUGGUCACACUCGUGUGUAUGGUGUUUGCUUUGUGGACACUUCACUGGGCAAGUUUUUCAUCGGCCAGUUUUCGGAUGAUCGCCAUUGUUCCAGAUUUAGGACUCUAGUGGCUCACUAU; value = 0.132 ratio
Oligonucleotide = GUAUUUGUGCGCUCCCCACUCGUGUUUGUAUUUUUAUUUUUAUAAGAUACAUGUAUUUACAAUUGAGCUUUUGUUACAUAAUGCUGAAAUGCUACUGGAGAUUAUGAAAAAUGUUUCAAU; value = 0.23 ratio
Oligonucleotide = CUGGCCUGGCCCUCCCCAGGGGCCUCCUUUCGUAUAGUCACUGCUUCUGCAUCAGAUAUUUUUAGCUCCAAGUCCUGACUGGGUGGGGCACCCAUUUCAGGCAGAAGGUUUUGGUACCCU; value = 1.56 ratio
Oligonucleotide = UAAGUUAUUUUGUACAGCUUUGUAAAUUCUUAACAUUUUUAUAUUGCCAUGUUUAUUUUGUUUGGGUGCUUUAUUAAAUACAUGGCCUAGCUAAGGUAAUGAACAUCUUUUUCAGUAAUU; value = 5.43 ratio
Oligonucleotide = AAAGAGUGGAUAGAGUGUGCACACGGGAUCGGUUAUACCCGGGCGAAAAAGGAGUGCAAGAUAGAGUUCGAUGACUUCGUAGAGUGUUUGCUUCGGUACAAAACGAUGAGGCGAAUGCAU; value = 0.469 ratio
Oligonucleotide = CCAAUUGUGGAGCAGUACUUGAAGACAAAGAAAAAUUCUAGUCAUUUAAUCAUCAAGUACAUUAGCUGCCGCCUGCUGACACUCAUCGUUAUACUGUUAGCGUGUAUCUACCUGGGCUAU; value = 0.686 ratio
Oligonucleotide = UCCCUGUUGCUGAAUAAAUGGCUUGUAAGAACUGUCCUCCAAGCUGUAACCCAUGCUGUUAUUAUAGUUGCUGCAAAAUGUUCUUCCUGAUAUUGAUUUUAUUUGUUAACUGAAGGUCUC; value = 0.405 ratio
Oligonucleotide = GGACAUCUUGUCAGGAUUUAUGUUCCUGUGAAACAAGUGAACACUCUGAUACACUUCAUCUGCUUGUACAUCUGUAUGAUAGAGAAACAGAAAUCUAUUAAUCCAAGCAAUGUGUCACUU; value = 0.0669 ratio

Sample 4 — method: aptamer microarray, sandwich; form: DNA with 2'F-ANA; matrix: in vitro; concentration: 200 nM; added: Cy3 exosite-II aptamer, 400 nM; reading: higher = stronger binding; measurement: mean fluorescence intensity; oligonucleotide: GGTTGGTGTGGTTGG
Target: Prothrombin, mature alpha-thrombin (F2, Homo sapiens, UniProt P00734)
Setting: whole 15-mer aptamer, many near background
Modification = 2'F-ANA at 1 2 7 8 11 12 15; value = 349 a.u.
Modification = 2'F-ANA at 1 2 3 5 6 7 8 11 14; value = 46.4 a.u.
Modification = 2'F-ANA at 3 5 8 10 12 13 14 15; value = 65.3 a.u.
Modification = 2'F-ANA at 3 4 5 11 12 15; value = 150 a.u.
Modification = 2'F-ANA at 6 7 8 9 10 11 12 13 15; value = 142 a.u.
Modification = 2'F-ANA at 1 5 8 10 11 13; value = 42.2 a.u.
Modification = 2'F-ANA at 3 5 7 8 10 12 13 15; value = 64.2 a.u.
Modification = 2'F-ANA at 1 2 3 6 7 11 12; value = 317 a.u.
Modification = 2'F-ANA at 1 2 5 7 8 12 13 14; value = 45.5 a.u.
Modification = 2'F-ANA at 2 3 6 9 10 12 13 14 15; value = 234 a.u.
Modification = 2'F-ANA at 1 4 6 10 11 12 13 14 15; value = 88.7 a.u.
Modification = 2'F-ANA at 2 3 4 9 11 15; value = 531 a.u.
Modification = 2'F-ANA at 1 3 4 9 10 11 12; value = 88.5 a.u.
Modification = 2'F-ANA at 1 2 5 9 11 12 13 14 15; value = 73.5 a.u.
Modification = 2'F-ANA at 5 7 8 9 10 14 15; value = 47.7 a.u.
Modification = 2'F-ANA at 2 4 5 7 8 9 11 14 15; value = 126 a.u.
Modification = 2'F-ANA at 1 2 3 5 9 10 12 14; value = 51 a.u.
Modification = 2'F-ANA at 5 6 8 9 10 15; value = 73.9 a.u.
Modification = 2'F-ANA at 1 6 7 11 12 13 15; value = 231 a.u.
Modification = 2'F-ANA at 4 7 8 10 14; value = 88.6 a.u.
Modification = 2'F-ANA at 1 2 3 4 5 6 7 9 10 11 12 13 15; value = 50.1 a.u.
Modification = 2'F-ANA at 1 4 5 6 8 11 13 14 15; value = 108 a.u.

Some of these lines once more (sample 2):
Oligonucleotide = CGUUCAUAUUCUCAGGCCGCAAGUGCAAUGCCUGAGGGGAUCAGGCUUUUCUACUCCAGGCAAACCUGCCCCAUCUUGUCGCUUUUAGGACCUCCCACAACCUGGUUCCC; value = 0.275
Oligonucleotide = CUUUCUUCUUGCCCAGCUCUGUCGAAUUCAUGGGUGUGUGUGCACAUGUUGGUUUCACUCACCCAGAGUAAUUUUGUGAGCAUGCAUGUGCUUUUUAAUUUCUGCUUGAA; value = 7.42
Oligonucleotide = UAACACAGGACGUGUGUGCGCAUGUGCAAGUGUGGAUGUAUGUGUGUGCGUGUGUUUUGCUCAUUUCUUUAGGGAACUUGGGAGUCGGGGUUGGAGGUGCUGGGCAAUGG; value = 1.16
